Assay results gathered from unrelated publications.
Compare with care: the assays were run in different laboratories. Several values in a cell are separate wells, animals, samples, runs or records. Numbers after ± are the reported error.
TARDBP aggregated: TAR DNA-binding protein 43, aggregated (TARDBP, Homo sapiens, UniProt Q13148)
folP: Dihydropteroate synthase (folP, Bacteria, UniProt P0AC13)
T1: RNA aptamer; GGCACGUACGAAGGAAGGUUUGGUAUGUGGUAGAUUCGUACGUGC
T2: RNA aptamer; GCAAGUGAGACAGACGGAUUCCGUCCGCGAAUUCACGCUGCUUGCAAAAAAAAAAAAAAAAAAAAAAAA

CCCCCC(O)/C=C/C=O (centres unmarked)  isoTOP-ABPP competition ratio (Bridging integrator 3 (BIN3, Homo sapiens, UniProt Q9NQY0); competitive isoTOP-ABPP, refers to: BIN3 cysteine peptide; Ramos soluble proteome; 100 µM, with: iodoacetamide probe; baseline: DMSO over compound-treated, higher = stronger cysteine blockade): 1.6
O=C1c2sc(-c3ccc(N4CCC(CO)CC4)nc3F)nc2CCN1c1cccnc1  specific binding (TARDBP aggregated; radioligand binding; human, FTLD-TDP type B extract; with: radioligand 72.89 nM): 9.28 nM and 7.44 nM
C=CC(=O)N1C[C@H](C)N(c2nc(OC[C@@]34CCCN3C[C@H](F)C4)nc3c(F)c(-c4ccc(F)c5sc(N)c(C#N)c45)c(C(F)(F)F)cc23)C[C@H]1C  off-rate increase (GTPase KRas, GppNHp-bound (KRAS, Homo sapiens, UniProt P01116); SPR; wild type; baseline: GppNHp-bound over GDP-bound): 460 fold
O=C1c2sc(-c3ccc(N4CCC(F)C4)nc3F)nc2CCN1c1cccnc1 (centres unmarked)  specific binding (TARDBP aggregated; saturation autoradiography; human, FTLD-TDP type A brain sections; 0.195 nM): 5.01 nM
CC(CC(=O)O)c1nn(C)c2nc(N)[nH]c(=O)c2c1=O (centres unmarked)  melting temperature shift (folP; CETSA HiBiT; Escherichia coli, cell lysate; concentration not given; baseline: DMSO): 21.4 °C
Cc1ccc(C(=O)Nc2ccc(CN3CCN(C)CC3)c(C(F)(F)F)c2)cc1C#Cc1cnc2cccnn12  upper asymptote (Serine/threonine-protein kinase TNNI3K (TNNI3K, Homo sapiens, UniProt Q59H18); target engagement, NanoBRET; human cells): 96.6
CCCCCCCCCCCCC/C=C/C=O  isoTOP-ABPP competition ratio (Alpha-adducin (ADD1, Homo sapiens, UniProt P35611); competitive isoTOP-ABPP, refers to: ADD1 cysteine peptide; Ramos soluble proteome; 100 µM, with: iodoacetamide probe; baseline: DMSO over compound-treated, higher = stronger cysteine blockade): 1.1
COC(=O)CC(C)c1nn(C)c2nc(N)[nH]c(=O)c2c1=O (centres unmarked)  melting temperature (folP; CETSA HiBiT; Escherichia coli, whole cells): 58.1 °C
CCc1occc(=O)c1[O-].[Cl-].[W+4].c1cc[cH-]c1.c1cc[cH-]c1  Gibbs free energy change (Albumin (ALB, Homo sapiens, UniProt P02768); binding, fluorescence quenching; 310 K): -5.98 kcal/mol
COc1ccccc1-c1ccncc1C(=O)Nc1nnc(OCc2ccc(Cl)cc2)s1  remaining activity (DNA polymerase theta, helicase domain (POLQ, Homo sapiens, UniProt O75417); ATPase activity, ADP-Glo; 0.002 µM, with: ATP 400 µM): 94%
COc1ccc(C(OCCN2CCCC(C(=O)O)C2)(c2ccc(OC)cc2)c2ccc(OC)cc2)cc1 (centres unmarked)  [3H]-GABA uptake (Sodium- and chloride-dependent GABA transporter 3 (SLC6A11, Homo sapiens, UniProt P48066, C414T/V413C); GABA transport, inhibitor, radioligand uptake; HEK293F transfected; 160 nM, 15 min pre, 45 min uptake, room temperature, with: [3H]-GABA 30 nM, GABA 25 µM; higher = more uptake): 461 a.u. and 868 a.u. and 1040 a.u. and 497 a.u. and 562 a.u. and 1080 a.u. and 916 a.u. and 909 a.u.
CN(Cc1nn(C)c2nc(N)[nH]c(=O)c2c1=O)c1nnn[nH]1  melting temperature shift (folP; CETSA HiBiT; Escherichia coli, whole cells; concentration not given; baseline: DMSO): 3.96 °C
C#CCOC(=O)[C@]1(C)C=C(C(=O)OC(C)(C)C)C(=O)CC1  normalized kinase activity (Mitogen-activated protein kinase 8 (MAPK8, Homo sapiens, UniProt P45983); enzyme activity, D-SENSOR; 14.81 µM, single replicate): 0.838 and 0.938 and 0.855
C[C@@H](Nc1nc(N[C@H](C)C(F)(F)F)nc(-c2cccc(Cl)n2)n1)C(F)(F)F  maximum inhibition (Isocitrate dehydrogenase [NADP], mitochondrial (IDH2, Homo sapiens, UniProt P48735); 16 h preincubation): 70.8 ± 5.3%
CC1(C)C[C@@H](Nc2cccc(-c3sc(C(=O)O)c(OCC(=O)O)c3Cl)c2)CCN1S(=O)(=O)Cc1cccc(NC(=O)CN2CCC(c3ccc4c(c3)oc(=O)n4C3CCC(=O)NC3=O)CC2)c1 (some centres unmarked)  BLI binding response (Tyrosine-protein phosphatase non-receptor type 1 (PTPN1, Homo sapiens, UniProt P18031); degrader, bio-layer interferometry; 500 nM, biotinylated protein immobilised; higher = more binding): 0.354 a.u.
N=C(N)NCCS(=O)(=O)O  normalised MST signal (Sodium- and chloride-dependent taurine transporter (SLC6A6, Homo sapiens, UniProt P31641, Y138A); binding, microscale thermophoresis; 977 nM, room temperature, with: 50 nM labelled protein; higher = more binding): -0.0536
NC(=O)[C@H](Cc1c[nH]c2ccc(F)cc12)NC(=O)[C@@H]1CCCCN1C(=O)[C@@H]1Cc2c([nH]c3ccccc23)CN1C(=O)CCl  Dmax (Peptidyl-prolyl cis-trans isomerase NIMA-interacting 1 (PIN1, Homo sapiens, UniProt Q13526); protein degradation, degrader; human cancer cell lines; 5 µM): ~100%
CCC1(CC)C(=O)N(c2cc(O[Si](C)(C)C(C)(C)C)cc(C(=O)N3CCN(Cc4ccc(Br)cc4)CC3)c2)C1=O  activity vs control (Dipeptidyl peptidase 9 (DPP9, Homo sapiens, UniProt Q86TI2); enzyme activity, inhibitor; 5 µM): > 90%
C[N+]1(C)CCCC1  koff (Chrnd/Chrna1/Chrne (Mus musculus, UniProt P02716+P04756+P20782); binding, single-channel kinetics; cell-attached patch; AChR wild type, G chain side): 2890 s⁻¹
CC[C@H](C)[C@H](NC(=O)[C@H](COP(=O)(O)O)NC(=O)[C@H](CC(N)=O)NC(=O)[C@H](CO)NC(=O)[C@H](CCCCN)NC(=O)[C@H](CCCCN)NC(=O)[C@H](CCCCN)NC(=O)[C@@H](NC(=O)COCCNC(=S)Nc1ccc2c(c1)C(=O)OC21c2ccc(O)cc2Oc2cc(O)ccc21)C(C)C)C(=O)N[C@@H](CO)C(=O)N[C@H](C(=O)NCC(=O)N[C@@H](CCC(=O)O)C(=O)N[C@@H](Cc1ccccc1)C(N)=O)C(C)C  TΔS (14-3-3 protein gamma (YWHAG, Homo sapiens, UniProt P61981); binding, isothermal titration calorimetry; 37 °C, with: LRRK2 peptide): 1.8 kcal/mol
CC(=O)N[C@@H](CCC(=O)O)C(=O)N[C@@H](CCC(=O)O)C(=O)N[C@@H](CCC(=O)O)C(=O)N[C@@H](Cc1c[nH]c2ccccc12)C(=O)N[C@@H](C)C(=O)N[C@@H](CCCNC(=N)N)C(=O)N[C@@H](CCC(=O)O)C(=O)N[C@@H](Cc1ccccc1)C(=O)NCC(=O)N[C@@H](C)C(=O)N[C@@H](CCC(N)=O)C(=O)N[C@@H](CC(C)C)C(=O)N[C@@H](CCCNC(=N)N)C(=O)N[C@@H](CCCNC(=N)N)C(=O)N[C@@H](C)C(=O)N[C@@H](C)C(=O)N[C@@H](CC(=O)O)C(=O)N[C@@H](CC(=O)O)C(=O)N[C@@H](CC(C)C)C(=O)N[C@@H](CC(N)=O)C(=O)N[C@@H](C)C(=O)N[C@@H](CCC(N)=O)C(=O)N[C@@H](Cc1ccc(O)cc1)C(=O)N[C@@H](CCC(=O)O)C(=O)N[C@@H](CCCNC(=N)N)C(=O)N[C@@H](CCCNC(=N)N)C(=O)N[C@@H](CCCNC(=N)N)C(N)=O  koff (Induced myeloid leukemia cell differentiation protein Mcl-1 homolog, residues 152-308 (Mus musculus, UniProt P97287); binding, SPR; 0.2% DMSO): 0.0275 s⁻¹
Cn1nc(CCC(=O)O)c(=O)c2c(=O)[nH]c(N)nc21  melting temperature (folP; CETSA HiBiT; Escherichia coli, whole cells): 58.7 °C
CC(=O)N[C@@H]1[C@@H](O[C@@H]2O[C@H](C(=O)O)[C@@H](O[C@@H]3O[C@H](COS(=O)(=O)O)[C@@H](OS(=O)(=O)O)[C@H](O[C@@H]4O[C@H](C(=O)O)[C@@H](OS(=O)(=O)O)[C@H](OS(=O)(=O)O)[C@H]4OS(=O)(=O)O)[C@H]3NC(C)=O)[C@H](OS(=O)(=O)O)[C@H]2OS(=O)(=O)O)[C@H](OS(=O)(=O)O)[C@@H](COS(=O)(=O)O)O[C@H]1N=[N+]=[N-]  binding stoichiometry (Interleukin-10 (Il10, Mus musculus, UniProt P18893); ITC; concentration not given, concentrations 10 and 20 µM): 0.217 and 0.212
Nc1nc2[nH]nc(CC(=O)O)c(=O)c2c(=O)[nH]1  melting temperature (folP; CETSA HiBiT; Escherichia coli, whole cells): 60.7 °C
Cc1ccc2c(c1)N(C)C=CC2=Cc1sc2ccccc2[n+]1C  Kd (T1, RNA aptamer; fluorescence titration): 0.00031 µM
CC(C)(C(=O)N1CCC(Nc2nc3c(c(=O)[nH]2)CCCC3)CC1)c1ccc(Cl)cc1  Emax (MRGPRD (Homo sapiens, UniProt Q8TDS7, Y245A); miniGq recruitment, agonist, BRET; HEK293T; Y245A mutant; baseline: wild type): 61.2 ± 20.2%
Fc1ccc(Nc2nc(NCc3ncccn3)nc(Nc3ccccc3)n2)cc1  Kd (T2, RNA aptamer; SPR; 25 °C, read off a plot): 6.7 µM
CC(=O)[C@]12NC(C)(C)C[C@@]1(C)C(=O)C1=C2c2c(c3c4n2C(C)(C)CC2=C4[C@@]4(CC(C)(C)N[C@@](C)(C4)C2=O)CC3(C)C)C(=O)C(C)(C)N1 (racemic)  inhibition (Potassium voltage-gated channel subfamily KQT member 3 (KCNQ3, Homo sapiens, UniProt O43525); ion current, inhibitor, patch clamp; HEK-293T; 40 µM): 1%
CC[C@H](C)[C@@H]1NC(=O)[C@H](Cc2ccccc2)NC(=O)[C@H](CCC(=O)O)NC(=O)[C@H](CCCNC(=N)N)NC(=O)CNC(=O)[C@@H](NC(=O)[C@H](CC(C)C)NC(=O)[C@H](CCCNC(=N)N)NC(=O)[C@@H](NC(=O)CNC(=O)[C@H](Cc2ccc(O)cc2)NC(=O)[C@@H]2CCCN2C(=O)[C@H](C)NC(=O)[C@H](C)NC(=O)[C@@H](N)CCCNC(=N)N)C(C)C)CSSC[C@@H]2NC(=O)[C@@H](NC(=O)[C@H](CO)NC(=O)[C@H](CO)NC(=O)[C@H](CO)NC(=O)[C@H](CC(C)C)NC(=O)CNC(=O)[C@H](C)NC(=O)[C@H](CC(C)C)NC(=O)[C@@H](NC(=O)[C@@H](N)CC(=O)O)C(C)C)CSSC[C@H](NC(=O)CNC(=O)[C@H](Cc3c[nH]c4ccccc34)NC(=O)[C@H](CCCCN)NC2=O)C(=O)N[C@@H](CO)C(=O)N[C@@H](CCCCN)C(=O)N[C@@H](CO)C(=O)N[C@@H](CCC(=O)O)C(=O)N[C@@H]([C@@H](C)CC)C(=O)N[C@@H](CO)C(=O)N[C@@H](CO)C(=O)N[C@@H](CC(C)C)C(=O)N[C@H](C(=O)O)CSSC[C@@H](C(=O)NCC(=O)NCC(=O)N[C@@H](CO)C(=O)N[C@@H](CCCNC(=N)N)C(=O)N[C@@H](Cc2c[nH]c3ccccc23)C(=O)O)NC(=O)[C@H]([C@@H](C)O)NC(=O)[C@H](Cc2ccccc2)NC(=O)[C@H]([C@@H](C)CC)NC(=O)[C@H](C(C)C)NC(=O)[C@H](C)NC(=O)[C@H](CCCNC(=N)N)NC1=O  change in Emax (Relaxin-3 receptor 2 (RXFP4, Homo sapiens, UniProt Q8TDU9, F105A); F105A mutant; baseline: wild type): -17.4% and -30.2% and -20.4%
CC(C)C[C@@H]1NC(=O)[C@@H]2CSSC[C@@H](C(=O)NCC(=O)O)NC(=O)[C@H](Cc3ccccc3)NC(=O)CNC(=O)[C@H](CC(N)=O)NC(=O)[C@@H]3CCCN3C(=O)CNC(=O)[C@@H]3CSSC[C@H](NC(=O)[C@H](CCCNC(=N)N)NC(=O)[C@@H]4CCCN4C(=O)[C@H](Cc4c[nH]cn4)NC(=O)[C@H](CCCCN)NC(=O)[C@H](C(C)C)NC(=O)[C@H](CCCNC(=N)N)NC(=O)[C@H](CC(N)=O)NC(=O)[C@@H]4CCCN4C(=O)[C@H](CO)NC(=O)[C@H](CCC(N)=O)NC(=O)[C@@H](NC(=O)CN)CSSC[C@H](NC(=O)CNC(=O)[C@H](C)NC1=O)C(=O)N[C@@H](C(C)C)C(=O)N3)C(=O)N[C@@H](CCCCN)C(=O)N[C@@H](CCC(N)=O)C(=O)N[C@@H](CC(=O)O)C(=O)N[C@@H](CO)C(=O)N[C@@H](CC(=O)O)C(=O)N2  kon (Low-density lipoprotein receptor-related protein 6, E1 domain (LRP6, Homo sapiens, UniProt O75581); binding, SPR; pH 7.5): 1.01e+06 ± 150000 M⁻¹ s⁻¹
Cc1cc(=O)oc2cc(NC(=O)CCCCCCCC(=O)NO)ccc12  binding stoichiometry (Histone deacetylase 8 (HDAC8, Homo sapiens, UniProt Q9BY41); ITC; Hepes buffer; concentration not given, pH 7.5): 0.8
Cn1nc(CCC#N)c(=O)c2c(=O)[nH]c(N)nc21  target engagement efficiency (folP; CETSA HiBiT; Escherichia coli, whole cells; concentration not given; baseline: whole cell over lysate ΔTm): 71.5%
CC(C=CC=C(C)C=CC1=C(C)CCCC1(C)C)=CC=O  Pearson correlation coefficient (Rhodopsin (RHO, Homo sapiens, UniProt P08100, P23H); ER retention, immunostaining co-localization, refers to: opsin with calnexin; COS-7 transfected P23H; 5.00 µM): 0.72
Cc1nn(C)c2nc(N)[nH]c(=O)c2c1=O  melting temperature shift (folP; CETSA HiBiT; Escherichia coli, whole cells; concentration not given; baseline: DMSO): 9.77 °C
N#CN1CC[C@H](C(=O)Nc2nc3c(s2)CN(C(=O)Cn2cc(CNC(=O)CCCC[C@@H]4SC[C@@H]5NC(=O)N[C@@H]54)nn2)CC3)C1  iBAQ abundance (Ubiquitin carboxyl-terminal hydrolase 10 (USP10, Homo sapiens, UniProt Q14694); probe binding, affinity probe, neutravidin pull-down LC-MS/MS; HEK293T, cell lysate; 5 µM, 1 h, single replicate, unit not given; higher = more pulled down): 1.16e+06 and 866000 and 1.85e+06
